# Measured values collected from several papers.
# Each numbered part is a random draw from the data of one study; scales do not carry over between parts. Several values in a cell are separate wells, animals, samples, runs or records.
# UniProt P9WI81, sequence (whole entry, looked up): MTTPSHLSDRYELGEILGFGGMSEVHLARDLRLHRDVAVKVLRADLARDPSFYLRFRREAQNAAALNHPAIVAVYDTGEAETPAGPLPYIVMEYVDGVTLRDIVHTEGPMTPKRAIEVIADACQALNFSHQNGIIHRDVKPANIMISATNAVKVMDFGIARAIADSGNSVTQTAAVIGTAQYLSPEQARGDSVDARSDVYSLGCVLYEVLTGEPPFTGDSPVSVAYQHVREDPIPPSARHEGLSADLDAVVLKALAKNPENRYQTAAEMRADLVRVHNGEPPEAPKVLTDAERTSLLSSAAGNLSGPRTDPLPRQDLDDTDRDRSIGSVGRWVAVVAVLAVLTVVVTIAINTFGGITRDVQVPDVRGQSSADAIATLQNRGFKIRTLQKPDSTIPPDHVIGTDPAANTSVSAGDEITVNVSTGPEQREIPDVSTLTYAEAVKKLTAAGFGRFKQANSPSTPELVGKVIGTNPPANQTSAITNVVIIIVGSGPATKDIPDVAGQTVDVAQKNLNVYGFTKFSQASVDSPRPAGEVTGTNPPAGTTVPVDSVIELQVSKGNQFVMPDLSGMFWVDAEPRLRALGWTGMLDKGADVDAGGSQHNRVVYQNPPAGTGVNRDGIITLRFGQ
# UniProt P31749, sequence (whole entry, looked up): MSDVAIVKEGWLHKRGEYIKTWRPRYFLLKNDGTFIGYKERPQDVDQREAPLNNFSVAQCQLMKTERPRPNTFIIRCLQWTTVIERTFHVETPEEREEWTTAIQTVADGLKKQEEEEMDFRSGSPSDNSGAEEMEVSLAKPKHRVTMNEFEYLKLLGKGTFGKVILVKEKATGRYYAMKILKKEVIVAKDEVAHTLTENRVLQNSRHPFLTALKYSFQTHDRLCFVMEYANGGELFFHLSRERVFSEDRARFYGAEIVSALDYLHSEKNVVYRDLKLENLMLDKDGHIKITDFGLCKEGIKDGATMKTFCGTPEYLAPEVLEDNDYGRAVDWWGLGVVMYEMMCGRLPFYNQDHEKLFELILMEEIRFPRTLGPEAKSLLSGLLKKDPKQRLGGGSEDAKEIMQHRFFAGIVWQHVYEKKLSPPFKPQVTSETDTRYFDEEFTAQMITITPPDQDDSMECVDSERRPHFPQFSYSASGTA

# Sample 1 — organism: Cryptosporidium parvum; species: neonatal calves; dose: dose not given; reading: direction not given
# SMILES: CNC(=O)c1ccc(-c2cnn3ccc(C(=O)N(C)c4ccc(Cl)c(C(=O)OC)c4)cc23)cc1
setting,fecal consistency score
day 11 post-treatment,1
day 13 post-treatment,1 and 2
day 12 post-treatment,1 and 2
day 1 post-treatment,2 and 3
day 4 post-treatment,1 and 2
day 10 post-treatment,1 and 2

# Sample 2 — cell line: HaCaT; tested at: 100 µM; time: 36 h
Structure (SMILES),viability
CC(CCc1ccccc1)NC(C)C(O)c1ccc(O)cc1 (centres unmarked),90.5%
O=P1(NCCCl)OCCCN1CCCl (centres unmarked),93.1%
COc1ccc(C(CN(C)C)C2(O)CCCCC2)cc1 (centres unmarked),78.1%

# Other studies, line by line
# HTR1B: 5-hydroxytryptamine receptor 1B (HTR1B, Homo sapiens, UniProt P28222)
# UniProt P28222, sequence (whole entry, looked up): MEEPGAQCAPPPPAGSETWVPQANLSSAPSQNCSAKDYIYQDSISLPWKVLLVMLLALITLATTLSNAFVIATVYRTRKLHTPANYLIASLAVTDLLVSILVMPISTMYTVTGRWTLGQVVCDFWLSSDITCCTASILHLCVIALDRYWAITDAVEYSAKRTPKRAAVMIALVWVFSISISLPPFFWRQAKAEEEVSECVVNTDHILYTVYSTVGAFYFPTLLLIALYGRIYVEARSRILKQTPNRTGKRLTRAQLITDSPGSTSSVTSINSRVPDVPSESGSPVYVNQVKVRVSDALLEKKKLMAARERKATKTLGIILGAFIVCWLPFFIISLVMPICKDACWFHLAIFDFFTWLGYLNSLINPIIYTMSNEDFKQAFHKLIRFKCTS
Compound,tested on,assay,test system,setting,measurement,value
CNC(=O)c1cc(C(=O)NC2CC2)cn(Cc2ccccc2)c1=O,HTR1B,"binding, radioligand binding",,10 µM,inhibition,-3.67%
O=C1CCC(N2Cc3c(ccc4c3OCC43CCN(Cc4ccccc4)CC3)C2=O)C(=O)N1 (centres unmarked),,,"ICR mice, male, plasma","intravenous, 1.0 mg/kg",steady-state volume of distribution,5.12 L/kg and 3.63 L/kg
C=CC(=O)Nc1ccc2[nH]c(=O)n(C3CCN(Cc4ccc(-c5ccc6c(c5)NC(=O)CO6)cc4)CC3)c2c1,"AKT1 (Homo sapiens, UniProt P31749)","target engagement in cells, BRET",,,IC50,1900 nM
C[C@@H]1CN(c2cc(-c3nn(C)c4ccc(OC5(C)CC5)cc34)ncn2)C[C@H](C)O1,"pknB (Mycobacterium tuberculosis, UniProt P9WI81)","cell-free assay, competition with immobilised ligand",,1 µM,remaining binding,100%
N#CC1(c2ccccn2)CCN(Cc2cc(C(=O)O)c(=O)n3ccccc23)CC1,HTR1B,"binding, radioligand binding",,10 µM,inhibition,2.72%

# A few entries again (sample 2):
Structure (SMILES),viability
COc1ccc(C(CN(C)C)C2(O)CCCCC2)cc1 (centres unmarked),78.1%
CC(CCc1ccccc1)NC(C)C(O)c1ccc(O)cc1 (centres unmarked),90.5%
